Measurements gathered from unrelated publications.
Protocols differ between the studies behind these lines. ± marks the error that the study gave. Square brackets hold non-standard residues; d marks the D form. Where no end group is shown, it is not given here. Ends that are not written are not given here. [ ]: non-standard residue; d: D form.
B1: efb Efb-C domain 101-164 N138A (Staphylococcus aureus, UniProt A0A0H2XIH9); chain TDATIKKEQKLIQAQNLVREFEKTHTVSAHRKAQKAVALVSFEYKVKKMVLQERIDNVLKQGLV
B2: avrPtoB 250-359 (Pseudomonas syringae, UniProt Q8RSY1); chain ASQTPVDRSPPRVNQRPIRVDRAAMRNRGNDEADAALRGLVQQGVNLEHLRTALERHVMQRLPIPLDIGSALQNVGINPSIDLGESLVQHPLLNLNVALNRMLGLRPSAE
Chain of UniProt O60602 (whole entry, looked up): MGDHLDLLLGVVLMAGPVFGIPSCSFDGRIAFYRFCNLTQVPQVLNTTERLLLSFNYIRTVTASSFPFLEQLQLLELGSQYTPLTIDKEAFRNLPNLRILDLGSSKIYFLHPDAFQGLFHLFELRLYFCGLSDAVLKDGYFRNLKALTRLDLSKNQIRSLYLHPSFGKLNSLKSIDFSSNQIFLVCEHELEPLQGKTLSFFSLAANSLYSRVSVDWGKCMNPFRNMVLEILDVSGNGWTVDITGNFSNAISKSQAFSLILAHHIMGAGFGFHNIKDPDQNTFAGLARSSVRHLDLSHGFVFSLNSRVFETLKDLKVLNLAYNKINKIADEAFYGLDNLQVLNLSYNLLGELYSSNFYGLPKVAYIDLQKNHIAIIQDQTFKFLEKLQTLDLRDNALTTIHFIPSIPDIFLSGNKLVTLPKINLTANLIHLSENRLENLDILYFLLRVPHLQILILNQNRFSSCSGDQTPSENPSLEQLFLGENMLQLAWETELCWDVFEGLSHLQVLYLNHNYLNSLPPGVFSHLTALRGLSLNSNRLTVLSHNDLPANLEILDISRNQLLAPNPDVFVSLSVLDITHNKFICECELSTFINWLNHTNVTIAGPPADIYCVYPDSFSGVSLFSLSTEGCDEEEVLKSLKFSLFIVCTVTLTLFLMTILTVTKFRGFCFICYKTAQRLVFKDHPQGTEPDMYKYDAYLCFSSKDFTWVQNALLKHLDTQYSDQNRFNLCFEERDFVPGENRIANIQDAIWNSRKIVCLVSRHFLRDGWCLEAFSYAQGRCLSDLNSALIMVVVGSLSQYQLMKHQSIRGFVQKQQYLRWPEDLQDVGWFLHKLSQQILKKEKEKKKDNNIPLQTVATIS
Chain of UniProt P01024 (whole entry, looked up): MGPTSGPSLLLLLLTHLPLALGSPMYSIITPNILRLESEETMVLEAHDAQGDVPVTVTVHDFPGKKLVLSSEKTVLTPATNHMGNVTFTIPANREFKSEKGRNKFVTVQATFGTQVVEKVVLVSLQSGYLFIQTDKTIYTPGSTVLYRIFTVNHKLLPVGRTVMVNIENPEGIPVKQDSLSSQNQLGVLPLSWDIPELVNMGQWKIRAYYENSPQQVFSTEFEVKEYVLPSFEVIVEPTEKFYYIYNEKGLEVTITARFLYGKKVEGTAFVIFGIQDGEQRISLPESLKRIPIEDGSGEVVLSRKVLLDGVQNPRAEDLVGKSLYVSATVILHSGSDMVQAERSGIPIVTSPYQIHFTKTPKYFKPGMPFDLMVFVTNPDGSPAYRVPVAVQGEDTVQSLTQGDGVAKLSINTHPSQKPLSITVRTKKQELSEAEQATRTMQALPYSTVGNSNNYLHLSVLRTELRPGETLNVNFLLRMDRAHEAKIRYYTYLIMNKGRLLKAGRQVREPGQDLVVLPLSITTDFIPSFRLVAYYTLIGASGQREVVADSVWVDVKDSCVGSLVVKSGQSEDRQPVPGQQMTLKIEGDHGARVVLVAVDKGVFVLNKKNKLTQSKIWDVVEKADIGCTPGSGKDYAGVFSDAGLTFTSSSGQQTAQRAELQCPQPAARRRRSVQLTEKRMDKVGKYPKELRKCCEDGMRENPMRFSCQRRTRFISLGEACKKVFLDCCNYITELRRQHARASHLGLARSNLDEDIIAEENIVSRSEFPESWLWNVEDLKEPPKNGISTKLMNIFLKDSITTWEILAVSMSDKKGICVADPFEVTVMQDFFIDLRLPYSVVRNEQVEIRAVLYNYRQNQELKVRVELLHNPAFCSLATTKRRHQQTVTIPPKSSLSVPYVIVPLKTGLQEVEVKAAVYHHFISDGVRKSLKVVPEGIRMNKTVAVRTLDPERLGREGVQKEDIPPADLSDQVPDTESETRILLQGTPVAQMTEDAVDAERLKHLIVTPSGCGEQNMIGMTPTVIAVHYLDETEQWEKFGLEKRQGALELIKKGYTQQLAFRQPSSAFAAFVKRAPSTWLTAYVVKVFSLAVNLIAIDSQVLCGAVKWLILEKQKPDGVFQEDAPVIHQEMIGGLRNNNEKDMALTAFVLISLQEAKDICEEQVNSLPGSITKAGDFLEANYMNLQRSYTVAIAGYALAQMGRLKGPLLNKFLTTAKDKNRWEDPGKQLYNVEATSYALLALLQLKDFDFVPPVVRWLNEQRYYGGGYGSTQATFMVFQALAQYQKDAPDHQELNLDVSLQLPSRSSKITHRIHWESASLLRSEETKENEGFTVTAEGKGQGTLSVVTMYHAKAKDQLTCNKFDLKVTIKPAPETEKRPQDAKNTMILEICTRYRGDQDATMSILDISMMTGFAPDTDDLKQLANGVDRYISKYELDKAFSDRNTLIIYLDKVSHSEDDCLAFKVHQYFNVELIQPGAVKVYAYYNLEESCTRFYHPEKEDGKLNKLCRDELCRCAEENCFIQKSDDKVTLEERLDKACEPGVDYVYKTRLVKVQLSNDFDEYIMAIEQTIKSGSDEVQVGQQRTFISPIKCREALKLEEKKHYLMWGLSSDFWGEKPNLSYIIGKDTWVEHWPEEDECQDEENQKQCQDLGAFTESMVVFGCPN
Chain of UniProt Q94F62 (whole entry, looked up): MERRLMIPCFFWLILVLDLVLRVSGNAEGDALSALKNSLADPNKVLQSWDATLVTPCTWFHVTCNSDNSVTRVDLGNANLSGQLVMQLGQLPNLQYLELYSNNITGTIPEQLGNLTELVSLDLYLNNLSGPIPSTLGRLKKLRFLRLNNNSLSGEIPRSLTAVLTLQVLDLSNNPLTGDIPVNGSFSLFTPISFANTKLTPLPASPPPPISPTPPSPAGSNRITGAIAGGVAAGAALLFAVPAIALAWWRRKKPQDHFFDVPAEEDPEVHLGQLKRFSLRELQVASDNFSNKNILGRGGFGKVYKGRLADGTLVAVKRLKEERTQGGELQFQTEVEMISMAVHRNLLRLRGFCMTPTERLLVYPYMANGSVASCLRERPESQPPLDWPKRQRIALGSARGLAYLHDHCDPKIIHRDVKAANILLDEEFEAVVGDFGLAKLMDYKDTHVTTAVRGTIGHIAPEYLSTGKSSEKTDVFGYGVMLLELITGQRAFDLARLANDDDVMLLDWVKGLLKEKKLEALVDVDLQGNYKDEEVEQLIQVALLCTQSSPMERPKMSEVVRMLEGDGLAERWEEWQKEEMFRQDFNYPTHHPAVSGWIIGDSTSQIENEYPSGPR

The Kd of `{TMR}-QDDYLWGLEAGEGISDLFD (E2F2 409-428 (Homo sapiens); N-terminal TMR label; TMR = tetramethylrhodamine dye)` is reported as 16 nM (RB1/E7 RB ; E7 55-787 del245-267/del582-642, phosphorylated by Cdk2-CycA (human papillomavirus); fluorescence polarisation; peptide; pH 8.0, NaCl 100 mM, two-site fit, added: E7 LxCxE peptide 10 µM).
`STKKLSECLKRIGDELDSNMELQR (Bax BH3 peptide BH3 domain)` has a Kd of 4000 nM (M11 1-136 (UniProt P89884); ITC; peptide; 14 °C, single-site model).
For `B1 (efb Efb-C domain 101-164 N138A)`, the relative affinity was greater than 20 fold (iC3b C3 fragments 23-667 (Homo sapiens, UniProt P01024); SPR; baseline: C3b, higher = tighter binding than C3b).
The protease inhibition of `RmS-6, glycosylated (Rhipicephalus microplus)` is reported as less than 20% (kallikrein (Sus scrofa); chromogenic substrate hydrolysis, inhibitor; 1 µM).
Under “decrease in NF-κB reporter signaling”, `fliC Q89A/R90A/Q97A (Salmonella enterica)` is recorded as 120 fold (TLR5 (Homo sapiens, UniProt O60602); NF-κB luciferase reporter; HEK293; EC50 ratio; baseline: CBLB502 EC50, higher = weaker activity).
For `melittin`, the partitioning enthalpy was -16.7 kcal/mol (isothermal titration calorimetry; POPC/POPG LUVs 50:50%; 100 µM, pH 7.0, 50 °C).
`RmS-3, glycosylated (Rhipicephalus microplus)` gave a protease inhibition of less than 20% (PLG plasmin (Homo sapiens); chromogenic substrate hydrolysis, inhibitor; 1 µM).
For `SipD fragment C244S/L318C, MTSL spin label at 318 (Salmonella) (sequence not shown)`, binding read “binds” (PrgI fragment (Salmonella); NMR paramagnetic relaxation enhancement).
The inhibition of `CNSRQTDREDELI` is reported as 0% (peptide, human polyclonal IgM RF WEAK; concentration not given, 5 µg/mL mAb II-481 coated, added: RF at 50% max binding concentration).
`LDYHFGLEEGEGIRDLFD (E2F1 409-426 (Homo sapiens, UniProt Q01094))` has a Kd of 110 nM (RB1/E7 RB ; E7 55-787 del245-267/del582-642 (human papillomavirus); ITC; pH 8.0, NaCl 100 mM, added: LxCxE peptide 100 µM).
`RUNX3 P1A in PPPY motif` has a half-life of greater than 3 h (CagA (Helicobacter pylori, UniProt P80200); cycloheximide chase; COS-7; co-expressed with CagA).
`B2 (avrPtoB 250-359)`: “molecule per partner” 1 (BAK1 kinase domain 250-591, pT446/pT449/pT450 (Arabidopsis thaliana, UniProt Q94F62); crystal structure).
With `AR[pT]KQTARKSTG (H3C1 1-12; pT3; pT = C[C@@H](OP(=O)(O)O)[C@H](N)C(=O)O)` the Kd was 1010 ± 90 nM (birc5.1 R89H (Xenopus laevis, UniProt Q8JGN5); ITC; peptide; pH 6.8, 25 °C).
`MoaA peptide (Staphylococcus aureus)` has a restored activity of 2.6% (moaA D198A/G340A (Staphylococcus aureus, UniProt P69848); MoaA/MoaC coupled assay; 200 µM; baseline: wt-MoaA, higher = more activity).
`NSRQTDR` has an inhibition of 0% (peptide, human polyclonal IgM RF MCC; concentration not given, 5 µg/mL mAb II-481 coated, added: RF at 50% max binding concentration).
For `AR[pT]KQTARKSTGGKA (histone H3 2-16 (UniProt P68431); pT3; pT = C[C@@H](OP(=O)(O)O)[C@H](N)C(=O)O; sequence looked up)`, the Kd was 150000 ± 13000 nM (BIRC5 D71A (Homo sapiens, UniProt O15392); ITC; peptide; pH 7.5, 25 °C, NaCl 100 mM).
For `RmS-17, glycosylated (Rhipicephalus microplus)`, the protease inhibition was less than 20% (kallikrein (Sus scrofa); chromogenic substrate hydrolysis, inhibitor; 1 µM).
`rhlR mBTL-bound (Pseudomonas aeruginosa)` — result for “light production enhancement”: 4 fold (pqsE 1-301 (Pseudomonas aeruginosa, UniProt P20581); reporter light production; in cells, added: mBTL; baseline: strain without PqsE, higher = more light).
